Measured values gathered from unrelated publications.
Protocols differ between the studies behind these lines.
Cell line: BT-549

Oc1cccc2c1[nH]c1c(C3=CC4(O)CCC=CCCCCN5CCC3C3(CC6C=CCCCCN6C43)C5)nccc12 (single isomer, unassigned; (+))
IC50 (cell growth or viability, neutral red; 48 h): 0.75 µg/mL

Cc1cc([C@H](C(=O)N2C[C@H](O)C[C@H]2C(=O)N[C@@H](CC(=O)N2CCC(N3CCC(C#Cc4ccc(C(=O)N[C@H]5C(C)(C)[C@H](Oc6ccc(C#N)c(Cl)c6)C5(C)C)cc4)CC3)CC2)c2ccc(-c3scnc3C)cc2)C(C)C)on1
IC50 (cell growth or viability, CCK-8; 7 days): 0.15 µM

CC(C)c1ccc(N(C)c2ccc3c(c2)OCC[C@H]3CNc2cnccc2C(=O)O)cc1
IC50 (cell viability, CellTiter-Glo; 7 days): 0.00998 µM

CNS(=O)(=O)Nc1nccc(Cc2c(C)c3ccc(Oc4ncccc4F)cc3oc2=O)c1F
IC50 (cell viability; 7 days): > 1 µM

Cc1ccc([N+](=O)[O-])cc1S(=O)(=O)N(C)/N=C/c1cnc2ccc(Br)cn12
IC50 (cell growth or viability): < 0.001 µM

CCOc1cncc(-c2ccc(NC(=O)C3(c4ccnc(NS(=O)(=O)C5CC5)n4)CCOCC3)nc2)n1
IC50 (cell growth or viability, ATP luminescence; 72 h): 10 µM

C1=[N+]2CCCC[N+]3=Cc4ccc5[n]4[Au-]23[n]2c1ccc2-c1nc2ccccc2nc1-5.F[P-](F)(F)(F)(F)F
TGI (NCI60 five-dose screen): 5.46 -log M

CN(C)CCN1CCN(c2ccc3nc(-c4ccc5nc(-c6ccc(C(F)(F)F)cc6)[nH]c5c4)[nH]c3c2)CC1
growth percent (SRB; 10 µM, 48 h): 86.2%

CC1(C)[C@H](NC(=O)c2cnn(CCO)c2)C(C)(C)[C@H]1Oc1ccc(C#N)c(Cl)c1
IC50 (cell growth or viability, CCK-8; 7 days): > 10 µM

COC(=O)N1c2ccc3c(nc(Cc4ccccc4)n3[C@@H]3CCC[C@@H](C(=O)O)C3)c2CC[C@@H]1C
IC50 (cell growth or viability, ATP luminescence; 10 days): 2.3 µM

Some of these lines once more:
Cc1ccc([N+](=O)[O-])cc1S(=O)(=O)N(C)/N=C/c1cnc2ccc(Br)cn12
IC50 (cell growth or viability): < 0.001 µM
